Results from different studies.
Compare with care: the assays were run in different laboratories. Values joined by “and” are separate records of one study, mostly repeats; a detail may differ. ± marks the error that the study gave.

| Structure (SMILES) | target or system | test | system | setting | scale | measurement | value |
| --- | --- | --- | --- | --- | --- | --- | --- |
| Cc1ccc(OCCN(C)C)cc1C(=O)N[C@H](C)c1cc(-c2ccc(C#N)nc2)nc2ccccc12 | Vero E6 | – | – | 1.953 µM | – | viability | 107% and 103% |
| CCN(CC)CCOc1ccc(-c2nnn(Cc3ccc(OC)cc3)c2N)cc1 | – | metabolic stability | rat, liver microsomes | – | – | half-life | 1.2 h |
| CCN(CCCCOc1ccc(CCC(=O)N2CCC(Cc3ccccc3)CC2)cc1OC)Cc1ccccc1 | – | – | Sprague-Dawley rats, both sexes, urine | oral gavage, 25 mg/kg, 6 to 12 h | relative to: dose | excretion rate | 0.0154 ± 0.0023% |
| O=c1[nH]c2ccccc2c(=O)o1 | – | chemical stability, HPLC-MS | borate buffered saline | pH 10.2, no N-acetyl-lysine | – | degradation rate constant | 2.1 h⁻¹ |
| CSCC[C@H](N)C(=O)N[C@@H](C)C(=O)N[C@@H](CCCNC(=N)N)C(=O)N[C@@H](CCCNC(=N)N)C(=O)N[C@@H](CC(=O)O)C(=O)N[C@@H](CCCCN)C(=O)N[C@H](C(=O)N[C@@H](CC(=O)O)C(=O)N[C@@H](Cc1ccccc1)C(=O)N[C@@H](C)C(=O)N[C@@H](CCCNC(=N)N)C(=O)N[C@@H](CCCNC(=N)N)C(=O)N[C@@H](CCCNC(=N)N)C(=O)N[C@@H](CCCNC(=N)N)C(=O)NCCCCCC(=O)NCCCCC(NC(=O)CCCCCNC(=O)[C@H](CCCNC(=N)N)NC(=O)[C@H](CCCNC(=N)N)NC(=O)[C@H](CCCNC(=N)N)NC(=O)[C@H](CCCNC(=N)N)NC(=O)[C@H](C)NC(=O)[C@H](Cc1ccccc1)NC(=O)[C@H](CC(=O)O)NC(=O)[C@@H](NC(=O)[C@H](CCCCN)NC(=O)[C@H](CC(=O)O)NC(=O)[C@H](CCCNC(=N)N)NC(=O)[C@H](CCCNC(=N)N)NC(=O)[C@H](C)NC(=O)[C@@H](N)CCSC)[C@@H](C)O)C(=O)NCCCCC(NC(=O)C(CCCCNC(=O)CCCCCNC(=O)[C@H](CCCNC(=N)N)NC(=O)[C@H](CCCNC(=N)N)NC(=O)[C@H](CCCNC(=N)N)NC(=O)[C@H](CCCNC(=N)N)NC(=O)[C@H](C)NC(=O)[C@H](Cc1ccccc1)NC(=O)[C@H](CC(=O)O)NC(=O)[C@@H](NC(=O)[C@H](CCCCN)NC(=O)[C@H](CC(=O)O)NC(=O)[C@H](CCCNC(=N)N)NC(=O)[C@H](CCCNC(=N)N)NC(=O)[C@H](C)NC(=O)[C@@H](N)CCSC)[C@@H](C)O)NC(=O)CCCCCNC(=O)[C@H](CCCNC(=N)N)NC(=O)[C@H](CCCNC(=N)N)NC(=O)[C@H](CCCNC(=N)N)NC(=O)[C@H](CCCNC(=N)N)NC(=O)[C@H](C)NC(=O)[C@H](Cc1ccccc1)NC(=O)[C@H](CC(=O)O)NC(=O)[C@@H](NC(=O)[C@H](CCCCN)NC(=O)[C@H](CC(=O)O)NC(=O)[C@H](CCCNC(=N)N)NC(=O)[C@H](CCCNC(=N)N)NC(=O)[C@H](C)NC(=O)[C@@H](N)CCSC)[C@@H](C)O)C(N)=O)[C@@H](C)O (stereo partly shown) | – | – | C57BL/6 mouse female, uterus | dose not given, 3 h | relative to: total | mean tissue distribution | 1.74% |
| CCn1ccc(-c2cc([C@@H](C)NC(=O)c3cc(N4CC5CCC(C4)N5C)ccc3C)c3ccccc3n2)n1 | Vero E6 | – | – | 7.812 µM | – | viability | 92.7% and 85% and 96.6% |
| CC(C)C[C@H](NC(=O)[C@H](Cc1ccc(O)cc1)NC(=O)[C@H](Cc1c[nH]cn1)NC(=O)[C@H](CC(=O)O)NC(=O)[C@H](CC(C)C)NC(=O)[C@H](C)NC(=O)[C@H](CC(C)C)NC(=O)CNC(=O)CNC(=O)[C@@H](NC(=O)[C@@H](NC(=O)[C@H](CCCCN)NC(=O)CNC(=O)[C@@H](NC(=O)[C@H](CCCCN)NC(=O)[C@H](CCCCN)NC(=O)[C@H](C)NC(=O)[C@H](CCCCN)NC(=O)[C@H](CCCNC(=N)N)NC(=O)[C@H](Cc1ccccc1)NC(=O)[C@@H](NC(=O)[C@H](CO)NC(=O)[C@H](CCCCN)NC(=O)[C@H](Cc1c[nH]c2ccccc12)NC(=O)CN)C(C)C)C(C)C)[C@@H](C)O)C(C)C)C(N)=O | – | – | zebrafish embryos 4 hpf, E3 medium | 1 h | – | acute toxic concentration | 5 µM |
| CC[C@H](C)[C@H](NC(=O)[C@H](CCCCN)NC(=O)CNC(=O)[C@H](CC(C)C)NC(=O)[C@H](Cc1ccccc1)NC(=O)[C@H](CCCCN)NC(=O)[C@H](CO)NC(=O)[C@H](Cc1ccccc1)NC(=O)[C@H](Cc1c[nH]c2ccccc12)NC(=O)[C@H](CCC(N)=O)NC(=O)[C@@H](NC(=O)[C@H](Cc1ccccc1)NC(=O)CCCCCNC(=O)CN1CCN(CC(=O)O)CCN(CC(=O)O)CCN(CC(=O)O)CC1)C(C)C)C(=O)N[C@@H](CCC(=O)O)C(=O)N1CCC[C@H]1C(=O)N[C@@H](CC(=O)O)C(=O)N[C@H](C(=O)N[C@@H](CO)C(=O)N[C@@H](CCC(N)=O)C(=O)N[C@H](C(=O)N[C@@H](CCC(N)=O)C(=O)N[C@@H](CC(=O)O)C(=O)N1CCC[C@H]1C(=O)N[C@@H](CC(N)=O)C(=O)N[C@@H](CC(=O)O)C(=O)N[C@@H](CCC(N)=O)C(=O)N[C@@H](Cc1ccc(O)cc1)C(=O)N[C@@H](CCC(=O)O)C(=O)N1CCC[C@H]1C(=O)N[C@@H](Cc1ccccc1)C(=O)O)C(C)C)C(C)C [copper-64 labelled] | – | dynamic PET | mouse both sexes, CT26 tumour, checkpoint inhibitor-treated, tumour | intravenous, 100 µCi/mouse, 270 s | – | SUVmean | 3.29 SUV |
| O=C1NC2(CC2)COc2ncc(F)cc2[C@H]2COCCN2c2ccn3ncc1c3n2 | – | – | Sprague-Dawley rats, female, blood | oral, 10 mg/kg/day, end of recovery, 4-week subacute toxicity | – | eosinophil percentage | 1.8 ± 0.58% |
| N#[11C]c1ccc(-c2csc(NN=C3CCCC3)n2)cc1 | – | – | C57BL/6 mice, male, liver | intravenous, 3 MBq, 60 min | – | radioactivity uptake | 5.98 ± 1.06 %ID/g |
| CC(C)=CCC/C(C)=C/CCn1cc(CC(C)(P(=O)(O)O)P(=O)(O)O)nn1 | – | – | mouse CD-1, bile | intravenous, 0.3 mg/kg, 2 h | – | concentration | 3840 ± 1230 ng/mL |
| CC(C)[C@H](NC(=O)[C@@H](NC(=O)[C@H](CCCNC(=N)N)NC(=O)[C@H](CCCNC(=N)N)NC(=O)[C@H](CCCNC(=N)N)NC(=O)[C@H](CCC(N)=O)NC(=O)[C@H](CCCNC(=N)N)NC(=O)[C@H](CCCNC(=N)N)NC(=O)[C@H](CCCCN)NC(=O)[C@H](CCCCN)NC(=O)[C@H](CCCNC(=N)N)NC(=O)CN)[C@@H](C)O)C(=O)N[C@H](C(=O)N[C@@H](CO)C(=O)N1CCC[C@H]1C(=O)O)[C@@H](C)O | – | – | ICR mice, male, spleen | intranasal, 20 mg/kg daily, 4 weeks | – | organ weight | 0.088 ± 0.024 g |
| CCCC[C@H]1C(=O)N(C)[C@@H](CCCC)C(=O)N[C@@H](CCCNC(=O)CN2CCN(CC(=O)O)CCN(CC(=O)O)CCN(CC(=O)O)CC2)C(=O)N[C@H](C(=O)NCC(N)=O)CSCC(=O)N[C@@H](Cc2ccc(O)cc2)C(=O)N(C)[C@@H](C)C(=O)N[C@@H](CC(N)=O)C(=O)N2CCC[C@H]2C(=O)N[C@@H](Cc2c[nH]cn2)C(=O)N[C@@H](CC(C)C)C(=O)N(C)CC(=O)N[C@@H](Cc2c[nH]c3ccccc23)C(=O)N[C@@H](CO)C(=O)N[C@@H](Cc2c[nH]c3ccccc23)C(=O)N1C [gallium-68 labelled] | – | – | NOD/SCID mice, CHO-hPD-L1 xenograft, tumour over liver | iv, dose not given, 120 min | relative to: tumour over liver | tissue-to-tissue ratio | 2.1 ± 1.18 |

For quick reference, copied from above:
| Structure (SMILES) | target or system | test | system | setting | scale | measurement | value |
| --- | --- | --- | --- | --- | --- | --- | --- |
| CC[C@H](C)[C@H](NC(=O)[C@H](CCCCN)NC(=O)CNC(=O)[C@H](CC(C)C)NC(=O)[C@H](Cc1ccccc1)NC(=O)[C@H](CCCCN)NC(=O)[C@H](CO)NC(=O)[C@H](Cc1ccccc1)NC(=O)[C@H](Cc1c[nH]c2ccccc12)NC(=O)[C@H](CCC(N)=O)NC(=O)[C@@H](NC(=O)[C@H](Cc1ccccc1)NC(=O)CCCCCNC(=O)CN1CCN(CC(=O)O)CCN(CC(=O)O)CCN(CC(=O)O)CC1)C(C)C)C(=O)N[C@@H](CCC(=O)O)C(=O)N1CCC[C@H]1C(=O)N[C@@H](CC(=O)O)C(=O)N[C@H](C(=O)N[C@@H](CO)C(=O)N[C@@H](CCC(N)=O)C(=O)N[C@H](C(=O)N[C@@H](CCC(N)=O)C(=O)N[C@@H](CC(=O)O)C(=O)N1CCC[C@H]1C(=O)N[C@@H](CC(N)=O)C(=O)N[C@@H](CC(=O)O)C(=O)N[C@@H](CCC(N)=O)C(=O)N[C@@H](Cc1ccc(O)cc1)C(=O)N[C@@H](CCC(=O)O)C(=O)N1CCC[C@H]1C(=O)N[C@@H](Cc1ccccc1)C(=O)O)C(C)C)C(C)C [copper-64 labelled] | – | dynamic PET | mouse both sexes, CT26 tumour, checkpoint inhibitor-treated, tumour | intravenous, 100 µCi/mouse, 270 s | – | SUVmean | 3.29 SUV |
| CC(C)[C@H](NC(=O)[C@@H](NC(=O)[C@H](CCCNC(=N)N)NC(=O)[C@H](CCCNC(=N)N)NC(=O)[C@H](CCCNC(=N)N)NC(=O)[C@H](CCC(N)=O)NC(=O)[C@H](CCCNC(=N)N)NC(=O)[C@H](CCCNC(=N)N)NC(=O)[C@H](CCCCN)NC(=O)[C@H](CCCCN)NC(=O)[C@H](CCCNC(=N)N)NC(=O)CN)[C@@H](C)O)C(=O)N[C@H](C(=O)N[C@@H](CO)C(=O)N1CCC[C@H]1C(=O)O)[C@@H](C)O | – | – | ICR mice, male, spleen | intranasal, 20 mg/kg daily, 4 weeks | – | organ weight | 0.088 ± 0.024 g |
